{"data": "Experimental data pooled from the literature", "note": "Each line is one published result; not all experiments were run side by side. ± gives the spread as reported."}
{"SMILES": "O=C([O-])CN1CCN(CC(=O)[O-])CCN(CC(=O)NC[C@H]2CC[C@H](C(=O)N[C@H](Cc3cnc4ccccc4c3)C(=O)NCCCC[C@H](NC(=O)N[C@@H](CCC(=O)O)C(=O)O)C(=O)O)CC2)CCN(CC(=O)[O-])CC1.[64Cu+2]", "test": "ex vivo gamma counting", "test system": "22Rv1 tumour-bearing mice, blood", "conditions": "intravenous, 0.74 MBq, 2 h post-injection", "tissue uptake": "2.16 %ID/g"}
{"SMILES": "COc1ccc(Nc2nc(Nc3ccc(OCCOCCOCC[18F])cc3)ncc2Br)cc1", "test system": "ICR mice, S180 tumour-bearing, muscle", "conditions": "intravenous, 370 kBq, 60 min", "tissue uptake": "2.58 ± 0.29 %ID/g"}
{"SMILES": "COc1ccc2c(c1)C(C)(C)C(/C=C/C1=C(Oc3ccc(C(=O)NCCCCOc4cc(CN(Cc5ccccn5)Cc5ccccn5)cc(CN(Cc5ccccn5)Cc5ccccn5)c4)cc3)C(=C/C=C3/N(CCCCS(=O)(=O)[O-])c4ccc(OC)cc4C3(C)C)CCC1)=[N+]2CCCCS(=O)(=O)[O-].O=[N+]([O-])[O-].O=[N+]([O-])[O-].[99Tc+].[C-]#[O+].[C-]#[O+].[C-]#[O+].[Zn+2]", "test system": "BALB/c mice, S. aureus myositis, lungs", "conditions": "12 h post-injection", "tissue uptake": "8.22 %ID/g"}
{"SMILES": "CCCC[C@H](NC(=O)CCCCCCCNC(=O)CN1CCN(CC(=O)O)CCN(CC(=O)O)CC1)C(=O)N[C@H]1CC(=O)NCCCC[C@@H](C(N)=O)NC(=O)[C@H](Cc2c[nH]c3ccccc23)NC(=O)[C@H](CCCNC(=N)N)NC(=O)[C@@H](Cc2ccccc2)NC(=O)[C@H](Cc2c[nH]cn2)NC1=O [fluorine-18 labelled]", "test system": "C57 mice B16-F10 melanoma, blood", "conditions": "intravenous, 0.37 MBq, 0.5 h", "tissue uptake": "2.47 ± 0.26 %ID/g"}
{"SMILES": "O=C(NCC1OC2CCC=CCCC2O1)c1ccc([18F])nc1 (centres unmarked)", "test system": "healthy female BALB/c nude mice, bone", "conditions": "intravenous, 7.4 MBq per mouse, 2 min", "tissue uptake": "1.4 ± 0.3 %ID/g"}
{"SMILES": "CC(C)C[C@H](NC(=O)[C@@H](CCCCNC(=O)[C@@H](Cc1ccccc1)NC(=O)CCCCCCCNC(=O)CN1CCN(CC(=O)O)CCN(CC(=O)O)CCN(CC(=O)O)CC1)NC(=O)[C@H](Cc1ccc(O)cc1)NC(=O)[C@H](CO)NC(=O)[C@H](Cc1c[nH]c2ccccc12)NC(=O)[C@H](Cc1c[nH]cn1)NC(=O)[C@@H]1CCC(=O)N1)C(=O)N[C@@H](CCCNC(=N)N)C(=O)N1CCC[C@H]1C(=O)NCC(N)=O [indium-111 labelled]", "test": "biodistribution", "test system": "male athymic nude mice, DU-145 prostate cancer xenograft, pancreas", "conditions": "intravenous, 0.037 MBq, 4 h post-injection", "tissue uptake": "0.08 ± 0.02 %ID/g"}
{"SMILES": "O=C(NCC1OC2CCC=CCCC2O1)c1ccc(COCCOCCOCC[18F])cc1 (centres unmarked)", "test system": "healthy female BALB/c nude mice, heart", "conditions": "intravenous, 7.4 MBq per mouse, 120 min", "tissue uptake": "1.7 ± 0.1 %ID/g"}
{"SMILES": "COc1ccc(Nc2nc(Nc3ccc(OCCOCC[18F])cc3)ncc2Br)cc1", "test system": "ICR mice, S180 tumour-bearing, muscle", "conditions": "intravenous, 370 kBq, 5 min", "tissue uptake": "1.87 ± 0.28 %ID/g"}
{"SMILES": "Cc1cc(C)n(CCN(CCN)CCCCCCNC(=O)[C@@H](N)Cc2c[nH]cn2)n1.[99Tc+].[C-]#[O+].[C-]#[O+].[C-]#[O+]", "test system": "BALB/c nude mice, A549 xenograft, kidney", "conditions": "intravenous, 24 h", "tissue uptake": "4 ± 0.46 %IA/g"}
{"SMILES": "CCCC[C@H](NC(=O)CNC(=O)CNC(=O)[C@H](CCCCNC(=O)[C@H](CC(=O)O)NC(=O)C(C)c1ccc(CC(C)C)cc1)NC(=O)CN1CCN(CC(=O)O)CCN(CC(=O)O)CCN(CC(=O)O)CC1)C(=O)N[C@H]1CC(=O)NCCCC[C@@H](C(N)=O)NC(=O)[C@H](Cc2c[nH]c3ccccc23)NC(=O)[C@H](CCCNC(=N)N)NC(=O)[C@@H](Cc2ccccc2)NC(=O)[C@H](Cc2c[nH]cn2)NC1=O (some centres unmarked) [lutetium-177 labelled]", "test system": "C57 mice, tumour-bearing, skin", "conditions": "intravenous, 0.037 MBq, 4 h", "tissue uptake": "0.45 ± 0.09 %ID/g"}
{"SMILES": "CCCC[C@H](NC(=O)COCCOCCNC(=O)CN1CCN(CC(=O)O)CCN(CC(=O)O)CC1)C(=O)N[C@H]1CC(=O)NCCCC[C@@H](C(N)=O)NC(=O)[C@H](Cc2c[nH]c3ccccc23)NC(=O)[C@H](CCCNC(=N)N)NC(=O)[C@@H](Cc2ccccc2)NC(=O)[C@H](Cc2c[nH]cn2)NC1=O [fluorine-18 labelled]", "test system": "C57 mice, B16/F10 melanoma, stomach", "conditions": "intravenous, 1 h, with: NDP-MSH 10 µg", "tissue uptake": "0.81 ± 0.36 %ID/g"}
{"note": "Some of these lines once more:"}
{"SMILES": "COc1ccc2c(c1)C(C)(C)C(/C=C/C1=C(Oc3ccc(C(=O)NCCCCOc4cc(CN(Cc5ccccn5)Cc5ccccn5)cc(CN(Cc5ccccn5)Cc5ccccn5)c4)cc3)C(=C/C=C3/N(CCCCS(=O)(=O)[O-])c4ccc(OC)cc4C3(C)C)CCC1)=[N+]2CCCCS(=O)(=O)[O-].O=[N+]([O-])[O-].O=[N+]([O-])[O-].[99Tc+].[C-]#[O+].[C-]#[O+].[C-]#[O+].[Zn+2]", "test system": "BALB/c mice, S. aureus myositis, lungs", "conditions": "12 h post-injection", "tissue uptake": "8.22 %ID/g"}
{"SMILES": "CCCC[C@H](NC(=O)CCCCCCCNC(=O)CN1CCN(CC(=O)O)CCN(CC(=O)O)CC1)C(=O)N[C@H]1CC(=O)NCCCC[C@@H](C(N)=O)NC(=O)[C@H](Cc2c[nH]c3ccccc23)NC(=O)[C@H](CCCNC(=N)N)NC(=O)[C@@H](Cc2ccccc2)NC(=O)[C@H](Cc2c[nH]cn2)NC1=O [fluorine-18 labelled]", "test system": "C57 mice B16-F10 melanoma, blood", "conditions": "intravenous, 0.37 MBq, 0.5 h", "tissue uptake": "2.47 ± 0.26 %ID/g"}
